Measured values of several laboratories.
Each numbered part is a random draw from the data of one study; scales do not carry over between parts. Positions count from the first letter of the parent shown.

Study 1
Target: RNA binding protein fox-1 homolog 2, RRM domain, GST-SBP tag (RBFOX2, Homo sapiens, UniProt O43251-10, residues 100-194)
Technique: RNA Bind-n-Seq
Molecule type: RNA
Medium: in vitro
Tested at: 365 nM
Setting: natural RNA segment, single round, ends assumed
Baseline: no-protein control
Direction: higher = stronger binding
Quantity: RBNS enrichment (R)
Shared flanks, not repeated: GGGAGUUCUACAGUCCGACGAUC … UGGAAUUCUCGGGUGCCAA
Target sequence (chain): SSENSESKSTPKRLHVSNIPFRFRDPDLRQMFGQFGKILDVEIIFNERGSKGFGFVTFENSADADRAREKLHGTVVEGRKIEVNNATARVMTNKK
AAGGAAUACAGCUAAAUAAACCAAGGGGGCUAGGCCCAGUCAGCCAUUGUACAGAGGCCCAGAUUUCUGUAUGUGUCGUGGUCAAUGGCUGGGUUGACAGAGUGGUCUGC: 0.479
UUGGCUUUAUUGAUGCACGGAUGCUUUUGAACAGUAGAGCGAAAUGCUAGACAUGGAGAACUUGCUCUGUUUGUCCUUUCUACAUUUCUGUAGUUAACAGAACACUGUAA: 2.35
CCUUGGGCUGUCACUGGGGACUGGCAGUGCCUAGUGAGAGAGAGCAUCAUACUUCAUGAUGUCAGAGUGUCUUGUCACGGUUUGGACUUAACUUCCCUCUAUAGUCAGCA: 2.78
CUGGGUUGGGGUCCCCCAGCAUCCAGACUGGAAACCUACCCAUUUUCCCCUGAGCAUCCUCUAGAUGCUGCCCCAAGGAGUUGCUGCAGUUCUGGAGCCUCAUCUGGCUG: 0.544
CAAGAUUAGUCCACGAAUGAUCCCCACCUCUUCUGCACAGGAUCCGUGGUCGUGACCCCACUGGCUCUGGCUGUAGCUUGCCAAGGGCACUGGCGUUGCUUGUGACAGCC: 0.696
CCCACUCAGCAUACACCCUCAAAAGACUCCCUCAGGAAACCACUAGUUCCUGUCACCUGCCCUCUGGUGUGUCCCUUGGCAAAUCUCUAUAGGAGGCCAAGUGUUAGCUA: 0.604
UGGGAGACAAAGGAGGAAUUUACUUUCUUCACCAAGUGCAAUAGAUUACUGAUGUGAUAUUCUGUUGCUUUACAGUUACAGUUGAUGUUUGGGGAUCGAUGUGCUCAGCC: 0.338
CGACCAUCUCUUCUAUUAAAUUACAGUACAUGUUCUAGACCAUUGAGAUCAAGCCUUUACUCCCUUUGAGAGUUUCCAACAUCAGUUGAUUGAGCUUCAGGCUUUACAAC: 0.409

Study 2
Target: CCNB3, cyclin fold, Cln2 fusion (human)
Technique: yeast growth competition, sequencing
Medium: yeast
Setting: strong parent motif
Baseline: not given
Direction: higher = stronger binding
Quantity: normalised enrichment score
Starting sequence: E2F1 docking peptide (human); PPVKRRLDFETDH
PPVKKRLDFETDH [R5K]: 0.874
PPVERRLDFETDH [K4E]: 0.0811
PPVKRRWDFETDH [L7W]: -0.141
PPVKRRLDFMTDH [E10M]: 1.36
PPYKRRLDFETDH [V3Y]: 0.437
PPVKRRFDFETDH [L7F]: 0.15
PPVRRRLDFETDH [K4R]: 4.25
PPVKDRLDFETDH [R5D]: 0.0709
PPVKRRLDFETVH [D12V]: 3.2
PEVKRRLDFETDH [P2E]: 1.21
PPVKRRQDFETDH [L7Q]: 0.245

Study 3
Target: Interferon regulatory factor 3, full length, phosphomimetic (IRF3, Homo sapiens, UniProt Q14653, residues 1-427, S386D/S396D/S398D/S402D/T404D/S405D)
Technique: protein-binding microarray
Molecule type: double-stranded DNA, one strand shown
Medium: in vitro
Tested at: 2540 nM top
Setting: 60-bp whole probe
Added: salmon DNA 0.4 mg/ml
Baseline: random background probes
Direction: higher = stronger binding
Quantity: fitted relative affinity
Shared flanks, not repeated: GCCTAGCAC … GTCTTGATTCGCTTGACGCTGCTG
Target sequence (chain): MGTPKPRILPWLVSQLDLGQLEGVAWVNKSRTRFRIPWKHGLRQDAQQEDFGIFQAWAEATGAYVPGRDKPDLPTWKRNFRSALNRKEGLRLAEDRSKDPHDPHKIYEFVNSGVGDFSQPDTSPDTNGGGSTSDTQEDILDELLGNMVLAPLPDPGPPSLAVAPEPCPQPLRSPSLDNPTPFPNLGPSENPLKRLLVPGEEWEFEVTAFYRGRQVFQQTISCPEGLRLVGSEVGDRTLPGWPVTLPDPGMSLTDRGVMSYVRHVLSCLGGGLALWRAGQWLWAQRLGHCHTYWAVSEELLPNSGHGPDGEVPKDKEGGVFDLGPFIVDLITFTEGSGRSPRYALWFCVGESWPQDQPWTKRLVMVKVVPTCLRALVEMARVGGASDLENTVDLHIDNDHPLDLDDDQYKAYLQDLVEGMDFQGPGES
TTAGGTATCGGACTGGGTTCGTGCTAG: 0.928 z-score
GACGGTATCATTTTCCTGACGTGCTAG: 4.51 z-score
TTAGAACTGGGTTTCGGTTAGTGCTAG: 3.38 z-score
TCATACTTCTGTTTTTGACTGTGCTAG: 0.925 z-score
TTAGGAATCGGTATCGGTTAGTGCTAG: 3.1 z-score
TTAGAACTCAGTCTCGATTAGTGCTAG: 0.203 z-score
TTAGGCTTCGACTATCGGTTAGTGCTA: -0.59 z-score
GATGATCTCAGACTGGAGACGTGCTAG: -0.241 z-score
GACGGTATCCTTTTCCTGAAGTGCTAG: 7.85 z-score
TCATTCCTAATTCTCTTACTGTGCTAG: 2.09 z-score
TATATTCTATTCCTTTAACAGTGCTAG: 1.72 z-score
CCTTGTCCCCTCAGGTATGGGTGCTAG: 1.14 z-score

Other studies, line by line
PhoQ, residues 284 288 289 292 302 303 SLANIV — fold induction (PhoP, residues 12 14 15 18 19 ICWRQ (Escherichia coli, UniProt P23836); Sort-seq, measured: YFP reporter; E. coli; PhoQ-PhoP variant library, added: 10 µM Mg2+; baseline: high Mg2+ state, higher = stronger signaling): 11.1

Repeated from above (study 2):
PPVKRRQDFETDH [L7Q]: 0.245
PPYKRRLDFETDH [V3Y]: 0.437
PPVKKRLDFETDH [R5K]: 0.874
